Assay results gathered from unrelated publications.
Lines come from different studies, so protocols differ. ± marks the error that the study gave.

| SMILES | assay | system | conditions | Cmax |
| --- | --- | --- | --- | --- |
| CN1[C@H]2CC[C@@H]1[C@@H](C(=O)O)[C@@H](OC(=O)c1ccccc1)C2 | LC-MS/MS | Sprague-Dawley rat, whole blood | intraperitoneal, 20 mg/kg of cocaine | 2170 ± 101 ng/mL |
| CC(=O)c1c(C)c2cnc(Nc3ccc(C4CCN(CCS(C)(=O)=O)CC4)cn3)nc2n(C2CCCC2)c1=O |  | Sprague-Dawley rat, female | oral, 60 mg/kg, day 28, repeated dosing 4 weeks | 6430 ng/mL |
| COC(=O)[C@@H]1[C@H]2CC[C@@H](C[C@@H]1O)N2C | LC-MS/MS | Sprague-Dawley rat, whole blood | intraperitoneal, 20 mg/kg of cocaine | 121 ± 7.16 ng/mL |
| Cc1ccc(S(=O)(=O)Nc2c(N[C@H]3CC[C@H](NC(=O)Nc4ccc(F)c(Cl)c4)CC3)c(=O)c2=O)cc1 |  | rat, plasma | intravenous, 10 mg/kg | 11.1 µM |
| COC[C@]12CN(C)[C@@H]3[C@@H]4[C@H](OC)[C@H]1[C@@]3([C@@H](OC)C[C@H]2O)[C@@H]1C[C@@]2(O)[C@H](OC(=O)c3ccccc3)[C@@H]1[C@]4(OC(C)=O)[C@@H](O)[C@@H]2OC |  | Sprague-Dawley rat, plasma | oral, dose not given, with NADES in PCW extract | 79.8 ± 21 ng/mL |
| O=C(O)CCC(CP(=O)(O)O)C(=O)O (stereo not shown) |  | male Wistar rat, plasma | ip, 100 mg/kg | ~1200 µM |
| CC(=O)Oc1ccc2c3c1O[C@H]1[C@@H](OC(C)=O)C=C[C@H]4[C@@H](C2)N(C)CC[C@@]341 | LC-MS/MS | Sprague-Dawley rat, male, whole blood | intraperitoneal, 10 mg/kg | 9.88 ± 3.41 ng/mL |
| C=CC[N+]1([C@H]2C[C@H]3[C@@H]4CC[C@H]5C[C@H](O)[C@@H](N6CCOCC6)C[C@]5(C)[C@H]4CC[C@]3(C)[C@H]2OC(C)=O)CCCC1 |  | Sprague Dawley rat, plasma | intravenous, dose not given, with: sugammadex 5 mg/kg | 242 ng/mL |
| CN1CC[C@]23c4c5ccc(O)c4O[C@H]2[C@@H](O[C@@H]2O[C@H](C(=O)O)[C@@H](O)[C@H](O)[C@H]2O)C=C[C@H]3[C@H]1C5 | LC-MS/MS | male Sprague-Dawley rat, whole blood | intraperitoneal, 10 mg/kg of heroin | 6.64 ± 1.54 ng/mL |
| COC[C@@]12CC[C@H](OC)[C@]34C(C([C@H](OC)[C@H]13)[C@]1(OC(C)=O)[C@H]3[C@@H](OC(=O)c5ccccc5)[C@](O)(C[C@H]34)[C@@H](OC)[C@@H]1O)N(C)C2 |  | Sprague-Dawley rat, plasma | oral, dose not given, in PCW extract | 441 ± 97.2 ng/mL |
| CCOC(=O)C1=C[C@@H](OC(CC)CC)[C@H](NC(C)=O)[C@@H](N)C1 | non-compartmental analysis | Sprague-Dawley rats, male, plasma | oral, 30 mg/kg, alone | 473 ± 109 ng/mL |
| CCN1C[C@]2(COC)[C@H](O)C[C@H](OC)[C@@]34[C@@H]5C[C@@]6(O)[C@H](OC(=O)c7ccccc7)[C@@H]5[C@@](OC(C)=O)([C@@H]([C@H](OC)[C@H]23)[C@@H]14)[C@@H](O)[C@@H]6OC |  | Sprague-Dawley rat, plasma | oral, dose not given, in PCW extract | 589 ± 163 ng/mL |
| C#Cc1ccc2c(c1)C(c1ccccn1)=NCc1c(-c3cnco3)ncn1-2 |  | Sprague Dawley rat, brain | oral, 2 mg/kg, cassette dosing | 0.678 µM |

A few entries again:
| SMILES | assay | system | conditions | Cmax |
| --- | --- | --- | --- | --- |
| C=CC[N+]1([C@H]2C[C@H]3[C@@H]4CC[C@H]5C[C@H](O)[C@@H](N6CCOCC6)C[C@]5(C)[C@H]4CC[C@]3(C)[C@H]2OC(C)=O)CCCC1 |  | Sprague Dawley rat, plasma | intravenous, dose not given, with: sugammadex 5 mg/kg | 242 ng/mL |
| Cc1ccc(S(=O)(=O)Nc2c(N[C@H]3CC[C@H](NC(=O)Nc4ccc(F)c(Cl)c4)CC3)c(=O)c2=O)cc1 |  | rat, plasma | intravenous, 10 mg/kg | 11.1 µM |
